Assay results collected from several papers.
Parts stem from different laboratories: compare values within a part only. Changes are numbered by the printed parent chain.

Sample 1
Target: CCNA2, cyclin fold, Cln2 fusion (human)
Method: yeast growth competition, sequencing
Medium: yeast
Setting: strong parent motif
Relative to: not given
Direction: higher = stronger binding
Parent: RB1 docking peptide (human); PKPLKKLRFDIEG
Variant	normalised enrichment score
K2G	0.493
K5A L7A	0.519
G13R	1.84
K6Q	1.37
L7V	1.48
K5V	-0.0384
K2D	0.0455
P3C	5.41
K6T	0.873
P3I	1.05
F9A	1.05
K5R F9L	0.554
D10C	0.314
F9L	0.204
P3F	1.19
L7F	0.0879
D10G	3.77
G13F	0.725
I11L	2.11
R8F	1.39
E12N	1.85
K6V	0.426
P3D	0.72
G13M	1.13
R8T	1.57

Sample 2
Target: ABI1, truncated, D143A, DHFR fusion (Arabidopsis thaliana)
Method: DHFR PCA, deep sequencing
Medium: yeast
Setting: methotrexate growth selection, single substitutions
Together with: (+)-ABA 200 µM
Relative to: wild-type fitted maximum
Direction: higher = stronger binding
Parent: PYL1, truncated, DHFR fusion (Arabidopsis thaliana); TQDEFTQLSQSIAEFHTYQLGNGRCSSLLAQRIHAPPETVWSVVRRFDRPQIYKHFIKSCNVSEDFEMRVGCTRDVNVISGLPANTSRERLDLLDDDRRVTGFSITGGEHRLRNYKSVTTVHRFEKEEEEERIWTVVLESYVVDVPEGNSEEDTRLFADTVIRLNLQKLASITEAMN
Variant	relative binding score [%]
C72H	92.9
N114P	4.56
D65N	98.5
R74P	-3.79
V121W	-11
L28M	100
R45M	20.5
G23M	88.5
T17M	82.2
S42E	97
R32Y	93.5
M68D	78.3
A84M	17
H16Q	12.7
L91G	3.2
E130M	101

Sample 3
Target: Ras GTPase-activating protein-binding protein 1, full length (G3BP1, Homo sapiens, UniProt Q13283)
Chain of UniProt Q13283 (whole entry, looked up): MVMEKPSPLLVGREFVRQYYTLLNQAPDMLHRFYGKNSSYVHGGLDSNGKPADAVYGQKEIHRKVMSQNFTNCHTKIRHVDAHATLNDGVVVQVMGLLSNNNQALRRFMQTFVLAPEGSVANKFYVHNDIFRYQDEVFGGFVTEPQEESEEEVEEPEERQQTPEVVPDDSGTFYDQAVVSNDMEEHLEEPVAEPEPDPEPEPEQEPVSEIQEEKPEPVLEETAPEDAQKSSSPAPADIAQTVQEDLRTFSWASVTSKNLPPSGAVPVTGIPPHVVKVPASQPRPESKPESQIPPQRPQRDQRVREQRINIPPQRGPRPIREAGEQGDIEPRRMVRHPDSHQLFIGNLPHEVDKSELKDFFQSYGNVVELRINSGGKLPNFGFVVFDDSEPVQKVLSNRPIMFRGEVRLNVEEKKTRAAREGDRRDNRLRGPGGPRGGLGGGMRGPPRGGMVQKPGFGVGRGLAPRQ
Method: RNA Bind-n-Seq
Form: RNA
Medium: in vitro
Concentration: 200 nM
Setting: whole 134-nt RNA, ends assumed
Together with: 150 mM LiCl
Relative to: input library
Direction: higher = stronger binding
All molecules: 7-deaza-guanosine replaces G
Constant ends, left off below: GGGAGUUCUACAGUCCGACGAUC … UGGAAUUCUCGGGUGUCAAGG
Sequence	log2 enrichment
CAAGUCCUGUGCUACACAUCGUAUGUACCGAAUCGGUGGAAAAAGGAAAAAAAGGAAAGUAUUAUGUUACGCCGUUCGGAUCUGCACUUC	-0.66
CUCAAGUCCUGUGCUACACAUCGUAUGUACCGAAUCGGGGAAGGGAAGGAAGGAAAGUAUUAUGUUACGCCGUUCGGAUCUGCACUUCCA	-0.816
UCAAGUCCUGUGCUACACAUCGUAUGUACCGAAUCGGGUUUUUGGGAGGGUGGGAAAGUAUUAUGUUACGCCGUUCGGAUCUGCACUUCC	-0.282
UCAAGUCCUGUGCUACACAUCGUAUGUACCGAAUCGGGAAGGGGAAGGGAAGGGAAAGUAUUAUGUUACGCCGUUCGGAUCUGCACUUCC	-0.396
CUGUGCUACACAUCGUAUGUACCGAAUCGGGGUUUUUUUGGGGUUUGGGGAAAAAAAGGGGAAAGUAUUAUGUUACGCCGUUCGGAUCUG	-0.0822
UCAAGUCCUGUGCUACACAUCGUAUGUACCGAAUCGGGGUUGGGUUGGUUGGGGAAAGUAUUAUGUUACGCCGUUCGGAUCUGCACUUCC	0.206
CACAGACAACACGCACCCACACAGUCACAGAGGGAAGGGGUUGGGAUGGGGACAGGGUGCACAGCAGGGCGGGGUAGGACCCCAGCCCCU	-0.0447
UCAAGUCCUGUGCUACACAUCGUAUGUACCGAAUCGGAAAGGUUUGGUUUUUGGAAAGUAUUAUGUUACGCCGUUCGGAUCUGCACUUCC	-0.288
UAACUUUAGAGGAGGAUCUGAUGGAUAUGGCAGUGGACGUGGAUUUGGGGAUGGCUAUAAUGGGUAUGGAGGAGGACCUGUAGGUGGCAA	0.0103
GUCCUGUGCUACACAUCGUAUGUACCGAAUCGGUUUUUUGGUUUUUUGGGUUUUUUGGAAAGUAUUAUGUUACGCCGUUCGGAUCUGCAC	-0.777
UCCUGUGCUACACAUCGUAUGUACCGAAUCGGGUUUUUUGGUUUUUUGGUUUUUUGGGGAAAGUAUUAUGUUACGCCGUUCGGAUCUGCA	-0.359

Sample 4
Target: Interferon regulatory factor 7, full length, phosphomimetic (IRF7, Homo sapiens, UniProt Q92985, residues 1-503, S101K/S471D/S472D/S475D/S476D/S477D/S483D/S484D/S487D)
Chain of UniProt Q92985 (whole entry, unmodified, looked up): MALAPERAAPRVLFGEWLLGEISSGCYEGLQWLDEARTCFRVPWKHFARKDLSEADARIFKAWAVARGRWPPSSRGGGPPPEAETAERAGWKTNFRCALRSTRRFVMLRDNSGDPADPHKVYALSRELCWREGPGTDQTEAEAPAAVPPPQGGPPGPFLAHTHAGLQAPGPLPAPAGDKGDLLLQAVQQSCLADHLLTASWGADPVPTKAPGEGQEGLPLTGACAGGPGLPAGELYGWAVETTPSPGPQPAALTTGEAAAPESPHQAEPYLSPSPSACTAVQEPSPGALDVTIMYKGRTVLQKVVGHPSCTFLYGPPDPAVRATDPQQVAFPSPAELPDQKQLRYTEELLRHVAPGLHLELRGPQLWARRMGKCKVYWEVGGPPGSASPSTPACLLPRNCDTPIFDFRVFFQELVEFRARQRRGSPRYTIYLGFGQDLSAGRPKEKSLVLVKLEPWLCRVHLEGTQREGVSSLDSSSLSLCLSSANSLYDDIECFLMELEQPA
Method: protein-binding microarray
Form: double-stranded DNA, one strand shown
Medium: in vitro
Concentration: 250 nM
Setting: 60-bp whole probe
Together with: salmon DNA 0.4 mg/ml
Relative to: random background probes
Direction: higher = stronger binding
Constant ends, left off below: GCCTAGCAC … GTCTTGATTCGCTTGACGCTGCTG
Sequence	log fluorescence [z-score]
TCATTTTTTTTTTCATCACTGTGCTAG	0.982
TCACTTCTCTTTTTGCTACTGTGCTAG	2.1
GACGGTATCGGTCTCGGGAAGTGCTAG	0.996
GACGATCTCAGACAGGAGACGTGCTAG	-0.323
TTGTCTCTGTCCCTGTTTCTGTGCTAG	1.33
TTAGATTTCCGGTTTCGATTAGTGCTA	9.58
GATGAACTGGGGTATCGAGACGTGCTA	-0.219
GACGGACTGGGGTTTCGGGAGGTGCTA	0.233
TTAGGGTTCGGACTGGGTTAGTGCTAG	0.2
TCAGTTTCCCCTATTTAACTGTGCTAG	3.71
TCAAAACTAAGTTTATTACTGTGCTAG	-0.0586
GACGGACTGGGATTTCGGGACGTGCTA	-0.603
GACGATTCCAGTTTCCAGACGTGCTAG	1.73
GACGAATTCGGGACTGGAGACGTGCTA	-0.23
TTAGATTTCGGGGCTGGATTAGTGCTA	-0.0671
GGCTGTTTGGTCCTGATCCTGTGCTAG	-0.724
TCAACTAGGGCATTTAGAACTGTGCTA	-0.852
TTAGATTTCATTTCCGATTAGTGCTAG	1.96
ATGCCTTTCTCTTGGAGCTTGTGCTAG	0.673
TCAAAATGATTGGTTGAACTGTGCTAG	-0.492
GACGAACTGAGCCTCGAGACGTGCTAG	-0.08
TCATGTTTCTACTGTCTGACTGTGCTA	1.07

Sample 5
Target: Myc proto-oncogene protein, bHLH-zipper, MAX partner unstated (MYC, Homo sapiens, UniProt P01106, residues 368-449)
Chain of UniProt P01106 (368-449, looked up): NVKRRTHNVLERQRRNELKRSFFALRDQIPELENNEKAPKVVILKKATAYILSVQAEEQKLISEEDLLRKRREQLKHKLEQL
Method: protein-binding microarray
Form: double-stranded DNA, one strand shown
Medium: in vitro
Concentration: not given
Setting: k-mer, scored over probes, only values ≥0.25
Direction: higher = stronger binding
Sequence	E-score
AACGAGGC	0.277
AACCACGA	0.395
CATGGGGG	0.357
ACGTGGGG	0.388
GCATGACC	0.342
CACATTGC	0.327
CCACGACG	0.293
CACCATGC	0.437
CGGGCACA	0.305

Sample 6
Target: Sal-like protein 4, full length isoform B (SALL4, Homo sapiens, UniProt Q9UJQ4-2, residues 1-616)
Method: universal PBM
Form: double-stranded DNA, one strand shown
Medium: in vitro
Concentration: not given
Setting: 8-mer, flanks averaged, mean of replicates
Direction: higher = stronger binding
Sequence	E-score
ACATGCGG	-0.128
CTCGGACC	-0.212
CAGCTGTC	-0.12
GACTGATC	-0.0316
AGAACCAT	0.131
ACGGGCGG	-0.321
AGGTAGTC	-0.123
GGAATTCC	-0.145
ACTGGTTG	-0.138
CTATTTCA	0.181
AACATCTG	0.0475
AAGTAATC	0.116
AGGGAAGG	-0.13
CTTTTCTA	0.176
GCCGGTTA	-0.126
GAGCACGA	-0.0686
